Experimental data of several laboratories.
Compare with care: the assays were run in different laboratories.

COc1ccc(C[C@@H]2NC(=O)[C@H]([C@@H](C)O)NC(=O)[C@@H]3[C@@H]4CCN3C(=O)[C@@H]3Cc5cn(c6ccc(F)cc56)CCCCCCN(Cc5ccc(cc5)CCNC(=O)[C@]5(C)CCCN5C2=O)C(=O)CCC(=O)N[C@@H](C)C(=O)N[C@H](CNC(=O)CCCCC[N+](C)(C)C)C(=O)N[C@@H](Cc2cccc(c2)CNC(=O)CO4)C(=O)N3)cc1
Cmax (human, plasma; oral, 100 mg, with: sodium caprate 1800 mg): 41.3 nM

OCc1ncc2n1-c1ccc(Cl)cc1C(c1ccccc1F)=NC2
Cmax (humans, plasma; 3 mg of midazolam, with: isavuconazole): 3.7 ng/mL

O=C(O)C[C@H](O)C[C@H](O)/C=C/c1c(C2CC2)nc2ccccc2c1-c1ccc(F)cc1
Cmax (human, plasma; oral, 2 mg): 28 ng/mL

COc1ccc(F)cc1C(=O)NCc1ccc(-c2nn([C@@H](C)C(F)(F)F)c(N)c2C(N)=O)cc1
Cmax (human, plasma; oral, 200 mg once daily, with: oral midazolam): 8750 ng/mL

N.N.O=C([O-])C1(C(=O)[O-])CCC1.[Pt+2]
Cmax (ICP-MS platinum, refers to: platinum; human patients, plasma; dose not given, carboplatin target AUC 3, cycle 1 day 1): 20000 ng/mL

OCc1ncc2n1-c1ccc(Cl)cc1C(c1ccccc1F)=NC2
Cmax (human, plasma; oral, 2 mg midazolam, day 1, midazolam alone, geometric mean): 2.67 ng/mL

O=C(O)CCS(=O)(=O)O
Cmax (human, plasma; oral, 265 mg twice daily, steady state week 65): 440 ng/mL

C[C@]1(CO)Cc2ncn(-c3ccc(C#N)c(Cl)c3)c2C(=O)O1
Cmax (human, plasma; 0.7 mg single dose, geometric mean): 25.6 nM

C=CCNc1c(O)cc2c(O)c1C[C@@H](C)C[C@H](OC)[C@H](O)[C@@H](C)/C=C(\C)[C@H](OC(N)=O)[C@@H](OC)/C=C\C=C(/C)C(=O)N2
Cmax (human, plasma; 400 mg/m2): 6740 ng/mL

CC[C@H](C)C(=O)O[C@H]1C[C@H](O)C=C2C=C[C@H](C)[C@H](CC[C@@H](O)C[C@@H](O)CC(=O)O)[C@H]21
Cmax (OATP1B1/1B3 humanized mouse; oral, dose not given): 786 nM

O=c1ccc2ncc(=O)n3c2n1C[C@H]3CN1CCC(NCc2cc3c(cn2)OCCC3)CC1
Cmax (healthy human volunteers, plasma; oral, 1500 mg, arithmetic mean, alone): 3990 ng/mL

Cn1ncc(-c2nc(N[C@H]3CC[C@H](N)CC3)ncc2Cl)c1CC1CC1
Cmax (HPLC-MS/MS; human patients; oral, 3 mg, day 1): 4.72 ng/mL

N.N.O=C([O-])C1(C(=O)[O-])CCC1.[Pt+2]
Cmax (refers to: non-protein-bound platinum; human, plasma ultrafiltrate; target AUC 2, median): 9300 ng/mL

C=C(C)[C@@H]1CC[C@]2(NCCN3CCS(=O)(=O)CC3)CC[C@]3(C)[C@H](CC[C@@H]4[C@@]5(C)CC=C(C6=CC[C@@](COc7ncccc7C#N)(C(=O)O)CC6)C(C)(C)[C@@H]5CC[C@]43C)[C@@H]12
Cmax (human, fed; oral, 100 mg tablet, geometric LS mean): 519 ng/mL

OCc1ncc2n1-c1ccc(Cl)cc1C(c1ccccc1F)=NC2
Cmax (human, plasma; oral, 2.5 mg): 3.7 ng/mL

CCCCCCCCCCC(=O)O[C@H]1CC[C@H]2[C@@H]3CCC4=CC(=O)CC[C@]4(C)[C@H]3CC[C@]12C
Cmax (refers to: testosterone; human, plasma; oral, 237 mg testosterone undecanoate, average): 12 ng/mL

Cc1ncc2n1-c1ccc(Cl)cc1C(c1ccccc1F)=NC2
Cmax (human, plasma; oral, dose not given, single dose, mean, with: rimegepant): 14.6 ng/mL

Cc1ncc2n1-c1ccc(Cl)cc1C(c1ccccc1F)=NC2
Cmax (healthy male humans, plasma; oral, 7.5 mg single dose, phase I DDI study, alone): 27.2 ng/mL

C[C@H](NC(=O)c1c(C(F)F)nn(C)c1Oc1cccc(C(F)(F)F)c1)c1ccc(C(=O)O)cc1
Cmax (human, plasma; 125 mg, cycle 1 day 8, mean): 178 ng/mL

NCCCS(=O)(=O)O
Cmax (human, plasma; oral, 265 mg twice daily, steady state week 65): 1210 ng/mL

OCc1ncc2n1-c1ccc(Cl)cc1C(c1ccccc1F)=NC2
Cmax (human; concentration not given, with: risdiplam): 4.1 ng/mL

O[C@H]1CCCN[C@@H]1CCCn1cnc2c(Cl)c(Cl)ccc21
Cmax (healthy human, plasma; oral, 150 mg, steady state, with: nintedanib 150 mg): 318 ng/mL

OCc1ncc2n1-c1ccc(Cl)cc1C(c1ccccc1F)=NC2
Cmax (healthy human volunteers, plasma; 5 mg, day 11, fed, with: once daily, momelotinib 200 mg, days 4 to 11): 5.3 ng/mL

CNC(=O)c1c(C)oc2cc(Oc3ccnc4cc(OCCN5CCOCC5)ccc34)ccc12
Cmax (human, fed; concentration not given, mean): 31.3 ng/mL

CC(=O)c1c(C)c2cnc(Nc3ccc(C4CCN(CCS(C)(=O)=O)CC4)cn3)nc2n(C2CCCC2)c1=O
Cmax (human, plasma; oral, 50 mg twice daily, day 1, single dose, with: letrozole): 95.7 ng/mL

OCc1ncc2n1-c1ccc(Cl)cc1C(c1ccccc1F)=NC2
Cmax (human, plasma; oral, 7.5 mg of midazolam, day 1, arithmetic mean, no amenamevir): 16.4 ng/mL

O=C(O)C(F)(F)C(F)(F)C(F)(F)C(F)(F)C(F)(F)C(F)(F)C(F)(F)F
Cmax (two-compartment model; human, plasma; oral, 50 mg single dose, geometric mean): 9250 ng/mL

COC[C@@H](NC(C)=O)C(=O)NCc1ccccc1
Cmax (fluorescence quenching; human healthy male, plasma; oral, 100 mg single): 2530 ng/mL

CC(C)c1nc(N(C)S(C)(=O)=O)nc(-c2ccc(F)cc2)c1/C=C/[C@@H](O)C[C@@H](O)CC(=O)O
Cmax (healthy human subjects, plasma; oral, 20 mg, day 1, fed, single dose, alone, geometric mean): 4.37 ng/mL

Excerpt of the above:
N.N.O=C([O-])C1(C(=O)[O-])CCC1.[Pt+2]
Cmax (refers to: non-protein-bound platinum; human, plasma ultrafiltrate; target AUC 2, median): 9300 ng/mL

C=C(C)[C@@H]1CC[C@]2(NCCN3CCS(=O)(=O)CC3)CC[C@]3(C)[C@H](CC[C@@H]4[C@@]5(C)CC=C(C6=CC[C@@](COc7ncccc7C#N)(C(=O)O)CC6)C(C)(C)[C@@H]5CC[C@]43C)[C@@H]12
Cmax (human, fed; oral, 100 mg tablet, geometric LS mean): 519 ng/mL

OCc1ncc2n1-c1ccc(Cl)cc1C(c1ccccc1F)=NC2
Cmax (human, plasma; oral, 2.5 mg): 3.7 ng/mL

CCCCCCCCCCC(=O)O[C@H]1CC[C@H]2[C@@H]3CCC4=CC(=O)CC[C@]4(C)[C@H]3CC[C@]12C
Cmax (refers to: testosterone; human, plasma; oral, 237 mg testosterone undecanoate, average): 12 ng/mL

Cc1ncc2n1-c1ccc(Cl)cc1C(c1ccccc1F)=NC2
Cmax (human, plasma; oral, dose not given, single dose, mean, with: rimegepant): 14.6 ng/mL
